Measurements gathered from unrelated publications.
Compare with care: the assays were run in different laboratories. Numbers after ± are the reported error.

The remaining compound of `O=C=Nc1cc(C(F)(F)F)cc(C(F)(F)F)c1` is reported as 39% (HEPES buffer; 20 h, pH 7.4).
The remaining compound of `CC(C)C[C@H](NC(=O)[C@H](CO)NC(=O)[C@H](CCC(=O)O)NC(=O)CNC(=O)[C@H](C)NC(=O)OCc1ccccc1)C(=O)N[C@@H](Cc1ccc(O)cc1)C(=O)N[C@@H](CCC(=O)O)C(N)=O` is reported as 100% (human plasma; 0 min, 37 °C).
For `O=C1CC[C@H](N2Cc3cc(-c4ccn5ncc(Cl)c5n4)ccc3C2=O)C(=O)N1`, the remaining compound was 97.3% (human liver microsomes; 1 µM, 15 min).
With `O=S(=O)(N[C@H]1CCO[C@@H](C2c3ccccc3CCc3ccccc32)C1)c1ccc(OC(F)(F)F)cc1` the remaining compound was 53% (liver microsomes; 10 µM, 30 min).
With `O=C(NC1CCC(F)(F)CC1)C(c1cncnc1)N(C(=O)C(F)Cl)c1ccc(OC(F)(F)F)cc1` (stereo not shown) the remaining compound was 98.8% (mouse liver microsomes; concentration not given, 0.25 h, pH 7.4).
The remaining compound of `C/C(=N\NC(=O)c1cccc(S(=O)(=O)N2CCOCC2)c1)c1cc(Cl)ccc1O` is reported as 88% (aqueous buffer; 0 days, 37 °C).
The remaining compound of `COc1cc(-c2cncc(-c3ccc(N4CCNCC4)cc3)c2C)cc(OC)c1F` is reported as 84% (human liver microsomes; 1 µM, 1 h, pH 7.4).
`O=CC1C(=O)Nc2ccccc21` (stereo not shown) gave a remaining compound of 94% (HEPES buffer; 20 h, pH 7.4).
With `C[C@](C(=O)NC1CCC(F)(F)CC1)(c1cncnc1)N(C(=O)[C@H](F)Cl)c1ccc(OC(F)(F)F)cc1` the remaining compound was 25.8% (mouse liver microsomes; concentration not given, 0.5 h, pH 7.4).
With `[2H]C1([2H])CC[C@@H](C[C@@H](C#N)NC(=O)[C@@H]2[C@@H]3[C@H](CN2C(=O)[C@@H](NC(=O)C(F)(F)F)C(C)(C)C)C3(C)C)C(=O)N1` the remaining compound was 102% (mouse liver microsomes; 60 min).
With `Cc1ccc(C(C)C)cc1.O=C(N=P12CN3CN(CN(C3)C1)C2)c1[c-]cccc1.[Cl-].[Ru+2]` the remaining compound was greater than 99% (DMSO-d6; 2.5 h).
`COc1cc2cn[nH]c2nn1` gave a remaining compound of 80.8% (LC-MS/MS; mouse liver S9 fraction, 0.25 mg/mL; 3 µM, 30 min, together with: NADPH 1 mM).
The remaining compound of `Cc1ccc2oc(-c3c4c(N)n[nH]c(=O)c4nn3-c3ccc(NC(=O)/C=C/CN(C)C)cc3)c(C)c2c1` is reported as 61.9% (BALB/c nude mouse whole blood; 1 µM, 1 h, 37 °C).
The remaining compound of `Cc1ccc(OCC(=O)N(Cc2cccs2)c2ccn[nH]2)cc1` is reported as 67.3% (Sprague-Dawley rat liver microsomes; 10 µM, 60 min, without NADPH).
`O=C(CNC(=O)c1cccc(NC2=NCCCO2)c1)NC[C@H](NC(=O)c1c(Cl)cc(-c2ccccc2)cc1Cl)C(=O)O` gave a remaining compound of 81% (mouse liver microsomes; 45 min).
The remaining compound of `CN(Cc1cc(C2CC2)on1)C(=O)c1cccc(-c2ccc(F)cc2)c1` is reported as 79% (human liver microsomes; 2 µM, 60 min, pH 7.5, together with: 1-aminobenzotriazole 500 µM, preincubated 30 min).
With `O=Cc1cc(OCc2ccccc2)ccc1B(O)O` the remaining compound was 90% (HEPES buffer; 20 h, pH 7.4).
For `CC(C)(C)[C@H](NC(=O)c1ccc(Oc2ccc(C(=O)N[C@H]3CCCC[C@@H]3O)cc2)cc1)C(=O)NCCN1CCCC1`, the remaining compound was 88.5% (human liver microsomes; 1 µM, 20 min, pH 7.4).
`O=S(=O)(Cl)c1cc(C(F)(F)F)cc(C(F)(F)F)c1` has a remaining compound of 0% (HEPES buffer; 20 h, pH 7.4).
`O=C(NC1CCC(F)(F)CC1)C(c1cncnc1)N(C(=O)C(F)Cl)c1ccc(-c2cncs2)cc1` (stereo not shown) has a remaining compound of 59.7% (mouse liver microsomes; concentration not given, 0.3333 h, pH 7.4).
For `CO[C@@H](C[C@H]1C(C)=CC[C@@H]2[C@]3(C)C[C@H](O[C@@H]4O[C@@H](C)[C@H](O)[C@@H](O)[C@H]4O)[C@@H](O)C(C)(C)[C@H]3CC[C@]21C)[C@H](N)C(=O)O`, the remaining compound was 98.9% (simulated gastric fluid with pepsin; 1 µM, 30 min, pH 1.2).
`C=CC(=O)Nc1cccc(Cn2ncc3cnc(Nc4cnn(CCOC)c4)nc32)c1` has a remaining compound of 100% (human whole blood; 5 µM, 0 min).
The remaining compound of `CCOC(=O)c1c(C(=O)OC)cn(CC(c2cn(C)c3ccccc23)c2cn(C)c3ccccc23)c1C` is reported as 98.4% (HPLC-ESI-MS; EMEM cell medium; 24 h, 37 °C).
`CCN(CC)C(=O)c1ccc(-c2cc(NCCCN3CCCCC3)c3ccccc3n2)cc1` has a remaining compound of 100% (human plasma; 1 h).
`O=Cc1cc(C(F)(F)F)cc(C(F)(F)F)c1` has a remaining compound of 20% (HEPES buffer; 20 h, pH 7.4).
`C=CC(=O)NCc1ccc(-n2nc3c(=O)[nH]nc(N)c3c2-c2oc3ccc(C)cc3c2C)cc1` has a remaining compound of 91.9% (BALB/c nude mouse whole blood; 1 µM, 2 h, 37 °C).
For `CCCCN1C(=O)c2cccc3c(N4CC[N+](C)(C5OC(C(=O)O)C(O)C(O)C5O)CC4)ccc(c23)C1=O` (stereo not shown), the remaining compound was 96% (human liver microsomes; 51.74 nM, 48 h, 4 °C).
`Cc1cc(C)nc(NC(=S)N2CCN(c3ccc(C(F)(F)F)cn3)CC2)c1` gave a remaining compound of 94.6 ± 5.4% (rat liver microsomes; 15 min).
`COc1cc(-c2cncc(-c3ccc(N4CCNCC4)cc3)c2C)cc(OC)c1OC` gave a remaining compound of 71% (human liver microsomes; 1 µM, 1 h, pH 7.4).
`C=C(NC(=O)c1csc(-c2nc3c(cc2O)-c2nc(cs2)C(=O)NC(C(C)O)C(=O)NC(=C(C)OC)c2nc(cs2)C(=O)NC2c4nc(cs4)C(=O)NC(COC(=O)c4c5c6c(cccc6n4O)COC(=O)C(OC4CC(C)(O)C(N(C)C)C(C)O4)C2OC5)c2nc-3cs2)n1)C(N)=O` (stereo not shown) gave a remaining compound of 75% (human liver microsomes; 2 µM, 60 min, together with: NADPH).
With `C=CC(=O)Nc1ccc(-n2nc3c(=O)[nH]nc(N)c3c2-c2oc3cc(F)ccc3c2C)cc1` the remaining compound was 85.2% (BALB/c nude mouse whole blood; 1 µM, 0.5 h, 37 °C).
With `Nc1nc(-c2ccccc2)nc2[nH]nc(Nc3ccc(F)cc3)c12` the remaining compound was 34% (human liver microsomes; time not given, metabolic stability).
`COc1ccc2c(c1)C(=O)C(=C[O-])C2.[Na+]` gave a remaining compound of 97% (HEPES buffer; 20 h, pH 7.4).
For `[2H]C1([2H])CC[C@@H](C[C@@H](C#N)NC(=O)[C@@H]2[C@@H]3[C@H](CN2C(=O)[C@@H](NC(=O)C(F)F)C(C)(C)C)C3(C)C)C(=O)N1`, the remaining compound was 60.1% (human liver microsomes; 60 min, together with: NADPH).
With `CCN(CC)c1ccc2cc(C(=O)ON3C(=O)CCC3=O)c(=O)oc2c1` the remaining compound was 1% (HPLC-MS; HEPES buffer; 1 h, pH 7.4).
The remaining compound of `Cc1nc2ccc(S(=O)(=O)n3nc(SCc4ccc(Cl)cc4)nc3N)cc2s1` is reported as 10% (human plasma; 24 h).
For `[2H]C(Cc1c[nH]c2ccccc12)(Nc1ccccc1)C(=O)O` (stereo not shown), the remaining compound was 83.6% (human liver microsomes; 1.5 µM, 120 min, pH 7.4, mean of replicates; relative to: 0 min).
The remaining compound of `O=C(Oc1cccc(CSc2ncccn2)c1)c1ccc([N+](=O)[O-])cc1` is reported as less than 1% (mouse plasma; 1 h).
`C/C(=N\OCCN(C)Cc1ccccc1)c1ccc(C(F)(F)F)cc1` gave a remaining compound of 28.2% (human liver microsomes; 30 min).
`O=C(N1CCCCC1)C12CC(c3ccccc3)(C1)C2(Cl)Cl` has a remaining compound of 96% (pooled human liver microsomes; 2 µM, 40 min, without NADPH).
`C=CC(=O)Nc1ccc(-n2nc3c(=O)[nH]nc(N)c3c2-c2oc3ccc(Br)cc3c2C)cc1` has a remaining compound of 28.4% (BALB/c nude mouse whole blood; 1 µM, 5 h, 37 °C).
`Cl.NCc1ccc2c(c1)CN(C1CCC(=O)NC1=O)C2=O` (stereo not shown) gave a remaining compound of less than 1% (male Göttingen minipig, whole blood; 3 h).
With `C=CC(=O)Nc1ccc(-n2nc3c(=O)[nH]nc(N)c3c2-c2oc3ccc(C)cc3c2C)cc1` the remaining compound was 50.3% (BALB/c nude mouse whole blood; 1 µM, 2 h, 37 °C).
`[2H]C1([2H])C[C@@H](C[C@@H](C#N)NC(=O)[C@@H]2[C@@H]3[C@H](CN2C(=O)[C@@H](NC(=O)C(F)(F)F)C(C)(C)C)C3(C)C)C(=O)N1` gave a remaining compound of 101% (mouse liver microsomes; 60 min).
`Cc1cc(C)nc(NC(=S)N2CCN(Cc3ccc(C(F)(F)F)cc3)CC2)c1` gave a remaining compound of 98.4 ± 7.3% (human liver microsomes; 15 min).
For `CC[C@H](C)[C@H](NC(=O)[C@@H](NC(=O)[C@H](CCC(=O)O)NC(=O)[C@H](C)NC(=O)[C@H](C)NC(=O)[C@H](CCC(=O)O)NC(=O)[C@H](Cc1ccc2ccccc2c1)NC(=O)[C@H](Cc1ccc(OCc2ccccc2[N+](=O)[O-])cc1)NC(=O)[C@@H](NC(=O)[C@@H](NC(=O)[C@H](CCCNC(=N)N)NC(=O)[C@H](C)NC(=O)[C@H](CC(N)=O)NC(=O)[C@H](CCCCN)NC(=O)[C@H](CCCNC(=N)N)NC(=O)[C@H](CCCCN)NC(=O)[C@H](CCCNC(=N)N)NC(=O)[C@H](CCCCN)NC(=O)[C@@H]1CCCN1C(=O)[C@H](CCCNC(=N)N)NC(=O)[C@H](CCCCN)NC(=O)[C@H](CCCNC(=N)N)NC(=O)[C@H](CCCNC(=N)N)NC(C)=O)C(C)C)[C@@H](C)O)[C@@H](C)CC)C(N)=O`, the remaining compound was 99% (HPLC; ambient light; 24 h).

Some of these lines once more:
`C/C(=N\OCCN(C)Cc1ccccc1)c1ccc(C(F)(F)F)cc1` gave a remaining compound of 28.2% (human liver microsomes; 30 min).
The remaining compound of `CN(Cc1cc(C2CC2)on1)C(=O)c1cccc(-c2ccc(F)cc2)c1` is reported as 79% (human liver microsomes; 2 µM, 60 min, pH 7.5, together with: 1-aminobenzotriazole 500 µM, preincubated 30 min).
`O=Cc1cc(C(F)(F)F)cc(C(F)(F)F)c1` has a remaining compound of 20% (HEPES buffer; 20 h, pH 7.4).
With `Nc1nc(-c2ccccc2)nc2[nH]nc(Nc3ccc(F)cc3)c12` the remaining compound was 34% (human liver microsomes; time not given, metabolic stability).
For `[2H]C(Cc1c[nH]c2ccccc12)(Nc1ccccc1)C(=O)O` (stereo not shown), the remaining compound was 83.6% (human liver microsomes; 1.5 µM, 120 min, pH 7.4, mean of replicates; relative to: 0 min).
